Assay results gathered from unrelated publications.
Compare with care: the assays were run in different laboratories. Numbers after ± are the reported error.
VHL with elongin B/C: von Hippel-Lindau disease tumor suppressor, with elongin B/C (VHL, Homo sapiens, UniProt P40337)
ORM1 F1/S variants: Alpha-1-acid glycoprotein 1, F1/S variants (ORM1, Homo sapiens, UniProt P02763)
Chain of UniProt P02763 (whole entry, looked up): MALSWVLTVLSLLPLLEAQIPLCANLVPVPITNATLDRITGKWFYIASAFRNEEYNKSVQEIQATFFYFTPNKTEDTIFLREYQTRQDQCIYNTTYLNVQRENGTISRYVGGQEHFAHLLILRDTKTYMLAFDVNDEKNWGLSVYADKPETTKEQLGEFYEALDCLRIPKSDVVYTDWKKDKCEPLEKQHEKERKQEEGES
uncharacterized protein: uncharacterized protein (Spodoptera exigua, UniProt F1CEY0)
OSBP2: Oxysterol-binding protein 2 (OSBP2, Homo sapiens, UniProt Q969R2)
Chain of UniProt Q969R2 (whole entry, looked up): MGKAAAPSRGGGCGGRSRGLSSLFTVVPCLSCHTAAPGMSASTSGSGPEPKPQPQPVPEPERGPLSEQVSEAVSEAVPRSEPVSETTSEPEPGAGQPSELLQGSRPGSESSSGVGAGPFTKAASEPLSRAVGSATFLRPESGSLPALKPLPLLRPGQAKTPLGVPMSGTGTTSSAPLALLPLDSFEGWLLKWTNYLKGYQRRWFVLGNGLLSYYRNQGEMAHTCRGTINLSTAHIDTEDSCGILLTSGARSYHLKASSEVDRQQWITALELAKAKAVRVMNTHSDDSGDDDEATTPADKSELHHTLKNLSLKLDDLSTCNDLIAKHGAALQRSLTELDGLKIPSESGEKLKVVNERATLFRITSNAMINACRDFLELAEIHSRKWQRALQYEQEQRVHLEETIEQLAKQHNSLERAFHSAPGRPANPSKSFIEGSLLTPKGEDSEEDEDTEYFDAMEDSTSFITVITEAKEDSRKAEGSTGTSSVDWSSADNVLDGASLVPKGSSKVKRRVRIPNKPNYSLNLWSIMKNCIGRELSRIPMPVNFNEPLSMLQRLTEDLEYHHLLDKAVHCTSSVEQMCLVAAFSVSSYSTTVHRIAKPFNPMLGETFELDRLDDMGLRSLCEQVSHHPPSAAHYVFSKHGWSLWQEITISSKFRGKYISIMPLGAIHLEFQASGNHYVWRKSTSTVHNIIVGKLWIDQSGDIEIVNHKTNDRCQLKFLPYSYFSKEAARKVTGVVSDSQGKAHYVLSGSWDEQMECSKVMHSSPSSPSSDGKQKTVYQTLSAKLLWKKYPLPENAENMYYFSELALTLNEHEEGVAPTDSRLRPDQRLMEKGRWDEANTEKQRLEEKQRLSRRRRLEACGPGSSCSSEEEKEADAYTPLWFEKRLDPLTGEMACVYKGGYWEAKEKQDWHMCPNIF
Chain of UniProt P0DMS8 (whole entry, looked up): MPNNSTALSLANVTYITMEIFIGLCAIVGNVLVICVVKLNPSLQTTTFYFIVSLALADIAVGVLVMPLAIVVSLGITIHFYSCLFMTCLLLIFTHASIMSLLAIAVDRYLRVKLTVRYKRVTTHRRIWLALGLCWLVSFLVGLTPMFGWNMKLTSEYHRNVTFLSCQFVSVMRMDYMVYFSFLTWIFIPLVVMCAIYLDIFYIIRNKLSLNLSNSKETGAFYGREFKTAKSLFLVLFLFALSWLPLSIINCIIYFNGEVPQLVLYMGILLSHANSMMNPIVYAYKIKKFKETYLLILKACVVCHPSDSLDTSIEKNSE
Chain of UniProt P16662 (whole entry, looked up): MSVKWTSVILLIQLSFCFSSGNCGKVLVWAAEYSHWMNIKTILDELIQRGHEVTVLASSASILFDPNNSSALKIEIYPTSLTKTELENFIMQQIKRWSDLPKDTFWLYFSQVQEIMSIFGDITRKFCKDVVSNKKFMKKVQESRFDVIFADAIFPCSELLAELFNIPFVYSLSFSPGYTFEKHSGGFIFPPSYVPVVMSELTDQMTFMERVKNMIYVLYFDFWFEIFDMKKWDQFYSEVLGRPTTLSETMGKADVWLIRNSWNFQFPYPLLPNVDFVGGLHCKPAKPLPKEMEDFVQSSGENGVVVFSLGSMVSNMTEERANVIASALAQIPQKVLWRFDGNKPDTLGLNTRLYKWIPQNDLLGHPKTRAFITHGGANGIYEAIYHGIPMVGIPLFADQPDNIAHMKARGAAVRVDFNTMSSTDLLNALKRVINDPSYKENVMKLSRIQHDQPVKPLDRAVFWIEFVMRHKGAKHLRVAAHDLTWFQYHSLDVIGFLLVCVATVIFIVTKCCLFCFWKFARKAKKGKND
Chain of UniProt P33261 (whole entry, looked up): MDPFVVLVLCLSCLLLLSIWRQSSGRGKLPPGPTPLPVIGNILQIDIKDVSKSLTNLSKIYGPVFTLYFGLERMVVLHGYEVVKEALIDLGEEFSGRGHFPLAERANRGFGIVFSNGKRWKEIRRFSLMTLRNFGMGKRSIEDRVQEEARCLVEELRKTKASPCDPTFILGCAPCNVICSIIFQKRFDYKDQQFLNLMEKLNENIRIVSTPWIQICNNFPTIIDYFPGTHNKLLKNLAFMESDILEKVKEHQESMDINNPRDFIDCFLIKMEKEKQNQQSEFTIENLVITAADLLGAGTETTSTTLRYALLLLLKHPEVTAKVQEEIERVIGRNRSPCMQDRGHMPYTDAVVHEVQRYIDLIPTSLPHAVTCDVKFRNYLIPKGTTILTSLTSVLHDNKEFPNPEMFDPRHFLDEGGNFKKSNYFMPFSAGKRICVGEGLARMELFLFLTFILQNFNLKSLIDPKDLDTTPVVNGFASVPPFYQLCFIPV
Chain of UniProt O15245 (whole entry, looked up): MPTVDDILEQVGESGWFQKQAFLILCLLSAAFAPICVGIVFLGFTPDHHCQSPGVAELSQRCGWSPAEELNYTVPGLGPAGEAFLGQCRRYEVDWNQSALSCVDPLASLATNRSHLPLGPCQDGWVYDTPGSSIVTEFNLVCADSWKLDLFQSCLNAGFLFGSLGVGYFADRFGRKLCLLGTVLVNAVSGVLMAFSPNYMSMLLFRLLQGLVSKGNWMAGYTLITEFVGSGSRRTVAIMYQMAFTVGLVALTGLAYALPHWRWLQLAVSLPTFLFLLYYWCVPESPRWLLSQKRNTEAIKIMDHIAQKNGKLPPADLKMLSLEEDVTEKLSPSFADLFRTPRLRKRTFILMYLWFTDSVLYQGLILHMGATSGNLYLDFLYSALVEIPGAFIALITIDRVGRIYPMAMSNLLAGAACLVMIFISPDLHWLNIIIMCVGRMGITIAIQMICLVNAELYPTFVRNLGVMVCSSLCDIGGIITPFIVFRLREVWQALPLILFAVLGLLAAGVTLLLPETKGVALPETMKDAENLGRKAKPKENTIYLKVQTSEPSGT
Chain of UniProt P50406 (whole entry, looked up): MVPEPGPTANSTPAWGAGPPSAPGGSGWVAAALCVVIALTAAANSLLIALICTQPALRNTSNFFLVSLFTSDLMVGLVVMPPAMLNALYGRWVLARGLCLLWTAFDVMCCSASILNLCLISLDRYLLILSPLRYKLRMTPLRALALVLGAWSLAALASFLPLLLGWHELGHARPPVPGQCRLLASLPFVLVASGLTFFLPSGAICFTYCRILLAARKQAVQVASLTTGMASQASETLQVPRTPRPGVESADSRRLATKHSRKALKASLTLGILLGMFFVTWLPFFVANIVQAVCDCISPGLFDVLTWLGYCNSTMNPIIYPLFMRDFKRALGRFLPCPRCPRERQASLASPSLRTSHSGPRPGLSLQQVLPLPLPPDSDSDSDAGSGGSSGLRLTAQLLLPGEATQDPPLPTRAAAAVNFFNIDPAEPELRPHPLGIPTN
Chain of UniProt Q00535 (whole entry, looked up): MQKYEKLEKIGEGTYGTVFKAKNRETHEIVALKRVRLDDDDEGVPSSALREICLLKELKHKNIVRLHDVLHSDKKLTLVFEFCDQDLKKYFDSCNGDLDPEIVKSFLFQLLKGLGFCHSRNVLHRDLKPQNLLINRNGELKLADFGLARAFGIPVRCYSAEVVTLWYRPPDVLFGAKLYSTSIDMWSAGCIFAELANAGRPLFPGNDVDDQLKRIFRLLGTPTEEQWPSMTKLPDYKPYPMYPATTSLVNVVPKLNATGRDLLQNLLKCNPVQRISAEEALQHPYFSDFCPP

SMILES | target | test | system | conditions | Ki [µM]
N#Cc1ccc([C@H]2CCc3cncn32)c(F)c1 | CYP2C19 (Homo sapiens, UniProt P33261) | inhibitor, refers to: S-mephenytoin 4'-hydroxylation | pooled human liver microsomes | pH 7.4, added: S-mephenytoin | 4.63 ± 0.353
Cc1ncsc1-c1ccc(CNC(=O)[C@@H]2C[C@@H](O)CN2C(=O)[C@@H](NC(=O)C2(F)CC2)C(C)(C)C)c(OCCOCCOCCN2CCN(c3cc(-c4ccccc4O)nnc3N)CC2)c1 | VHL with elongin B/C | binding | – | – | 0.21
CCOC(=O)[C@H](CCc1ccccc1)N[C@H]1CCc2ccccc2N(CC(=O)O)C1=O | ORM1 F1/S variants | competitive inhibitor, ultrafiltration | – | 15 min, 37 °C, added: [3H]tamsulosin | 61.1
O=c1cccccc1O | CA2 (Homo sapiens, UniProt P00918, L197G) | esterase activity, inhibitor, p-nitrophenyl acetate hydrolysis | – | pH 8.0 | 245 ± 14
COc1cc(N2CCC(N3CCN(C)CC3)CC2)ccc1Nc1ncc(Cl)c(Nc2ccccc2P(C)(C)=O)n1 | SLC22A1 (Homo sapiens, UniProt O15245) | transport, inhibitor | HEK cells transfected with SLC22A1 | added: MPP+ 5 µM substrate | 5.58
COCc1cc(C(=O)Nc2cc([C@H]3CC[C@@H](OC(=O)NC(C)C)C3)[nH]n2)n(C)n1 | Cyclin-dependent kinase 5, with p25 (CDK5, Homo sapiens, UniProt Q00535) | kinase activity, inhibitor, fluorescence | – | – | 0.0066
CCN(CC)CCCN(c1ccccc1)C1Cc2ccccc2C1 | ORM1 F1/S variants | competitive inhibitor, ultrafiltration | – | 15 min, 37 °C, added: [3H]tamsulosin | 4.21
CCCCCCCCOC(C)=O | uncharacterized protein | binding | – | added: 1-NPN | 5.77
COC(=O)C1=C(C)NC(C)=C(C(=O)O[C@H]2CCN(Cc3ccccc3)C2)[C@H]1c1cccc([N+](=O)[O-])c1 | ORM1 F1/S variants | competitive inhibitor, ultrafiltration | – | 15 min, 37 °C, added: [3H]S-warfarin | 29.2
Nc1nc(NCCc2ccc(O)cc2)nc2nc(-c3ccco3)nn12 | ADORA3 (Homo sapiens, UniProt P0DMS8) | NanoBRET competition binding | HEK293 expressing Nluc-A3 | co-addition with tracer | 3.24
CNC(=O)[C@@]12C[C@@H]1[C@@H](n1cnc3c(NC)nc(C#C[c-]4cccc4)nc31)[C@H](O)[C@@H]2O.[Fe+2].c1cc[cH-]c1 | HTR6 (Homo sapiens, UniProt P50406) | radioligand binding (PDSP) | – | – | 0.365
C[C@H](CCC(=O)O)[C@H]1CC[C@H]2[C@@H]3[C@@H](O)C[C@@H]4C[C@H](O)CC[C@]4(C)[C@H]3CC[C@]12C | OSBP2 | [3H]-25-hydroxycholesterol binding, competitive inhibitor | – | – | > 100
C=C1CC[C@@H]2[C@](C)(CO)[C@H](O)CC[C@@]2(C)[C@@H]1CCC1=CCOC1=O | UGT2B7 (Homo sapiens, UniProt P16662) | AZT glucuronidation, inhibitor | pooled human liver microsomes | 30 min, pH 7.4, added: zidovudine | 7.1
CSc1ccc2c(c1)N(CCC1CCCCN1C)c1ccccc1S2 (centres unmarked) | ORM1 F1/S variants | competitive inhibitor, ultrafiltration | – | 15 min, 37 °C, added: [3H]tamsulosin | 1.31
Cc1ncsc1-c1ccc(CNC(=O)[C@@H]2C[C@H](O)CN2C(=O)[C@@H](NC(=O)C2(F)CC2)C(C)(C)C)c(OCCOc2ccc(CN3CCN(c4cc(-c5ccccc5O)nnc4N)CC3)cc2)c1 | VHL with elongin B/C | binding | – | – | > 30
CC(=O)OCC(=O)[C@H]1CC[C@H]2[C@@H]3CC=C4C[C@@H](O)CC[C@]4(C)[C@H]3CC[C@]12C | OSBP2 | binding, radioligand competition | – | added: [3H]-25-hydroxycholesterol | > 100
COc1ccccc1OCCNCC(O)COc1cccc2[nH]c3ccccc3c12 (centres unmarked) | ORM1 F1/S variants | competitive inhibitor, ultrafiltration | – | 15 min, 37 °C, added: [3H]S-warfarin | 7.52
CCCCCCCCCCOC(C)=O | uncharacterized protein | binding | – | added: 1-NPN | 4.87
COC(=O)C1=C(C)NC(C)=C(C(=O)OCCN(C)Cc2ccccc2)C1c1cccc([N+](=O)[O-])c1 (centres unmarked) | ORM1 F1/S variants | competitive inhibitor, ultrafiltration | – | 15 min, 37 °C, added: [3H]tamsulosin | 4.86
COc1cc2c(cc1OC)-c1cc3ccc(OC)c(OC)c3c[n+]1CC2 | lipase | inhibitor | – | – | 160

For quick reference, copied from above:
SMILES | target | test | system | conditions | Ki [µM]
Cc1ncsc1-c1ccc(CNC(=O)[C@@H]2C[C@@H](O)CN2C(=O)[C@@H](NC(=O)C2(F)CC2)C(C)(C)C)c(OCCOCCOCCN2CCN(c3cc(-c4ccccc4O)nnc3N)CC2)c1 | VHL with elongin B/C | binding | – | – | 0.21
